Measurements gathered from unrelated publications.
A part holds a random share of what one study measured. Positions count from the first letter of the parent shown.

Series 1 — target: CCNB2, cyclin fold, Cln2 fusion (human); technique: yeast growth competition, sequencing; matrix: yeast; setting: weak parent motif; reference: not given; reading: higher = stronger binding
Parent: RBL1 docking peptide (human); GSAKRRLFGEDPP
Under “normalised enrichment score”, `GSAKRRLVGEDPP [F8V]` is recorded as -0.000904.
For `GVAKRRLFGEDPP [S2V]`, “normalised enrichment score” read 0.157.
`GSAKRRLFGEEPP [D11E]`: “normalised enrichment score” 0.0656.
`GSAKRRLFGEDLP [P12L]`: “normalised enrichment score” 0.0826.
Under “normalised enrichment score”, `GSAKRRQFGEDPP [L7Q]` is recorded as 0.261.
`GSKKRRLFGEDPP [A3K]` — result for “normalised enrichment score”: 0.311.
Under “normalised enrichment score”, `GSAKRRLFGEDPE [P13E]` is recorded as -0.581.
`GSAKGRLFGEDPP [R5G]` — result for “normalised enrichment score”: -0.0625.

Series 2 — target: BATF3, bZIP domain (human); technique: DHFR protein complementation; matrix: yeast; reference: wild-type JUN-FOS pair; reading: higher = stronger binding
Setting: single substitutions, most at no-binding floor
Parent: JUN, bZIP domain (human); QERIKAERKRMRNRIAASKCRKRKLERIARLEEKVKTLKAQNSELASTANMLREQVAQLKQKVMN; partner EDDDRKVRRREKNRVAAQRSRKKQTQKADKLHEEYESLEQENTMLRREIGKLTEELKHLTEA
For `K36V`, the binding fitness was 0.247 natural log.
The binding fitness of `Q55F` is reported as -0.0591 natural log.
With `M51L` the binding fitness was 0.233 natural log.
The binding fitness of `E33W` is reported as 0.126 natural log.
`E33C` gave a binding fitness of 0.133 natural log.
With `L38H` the binding fitness was -0.212 natural log.
The binding fitness of `E54N` is reported as 0.192 natural log.
With `K36C` the binding fitness was 0.331 natural log.
`S47G` has a binding fitness of 0.221 natural log.

Series 3 — technique: RNA Bind-n-Seq; form: RNA; matrix: in vitro; concentration: 200 nM; setting: whole 134-nt RNA, ends assumed; together with: 150 mM LiCl; reference: input library; reading: higher = stronger binding; all molecules: 7-deaza-guanosine replaces G
Target: Fragile X messenger ribonucleoprotein 1, C-terminal low-complexity region (Fmr1, Mus musculus, UniProt P35922)
`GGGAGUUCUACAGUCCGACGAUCGCAGGAAGUAAAAACAAAUGGAAAUGCUUCGGAUAGUGGCAGGGGUGGGGGUUGCUAAGGAAAGGGUGGGAUGAAAGUGGGUAAAGAGUUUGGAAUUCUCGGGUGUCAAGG` gave a log2 enrichment of 1.48.
With `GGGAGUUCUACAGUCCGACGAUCUCCUGUGCUACACAUCGUAUGUACCGAAUCGGGGUUUUUUUGGGGAGGGGAAAAAGGGGAAAGUAUUAUGUUACGCCGUUCGGAUCUGCAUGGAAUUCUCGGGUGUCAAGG` the log2 enrichment was -0.773.
`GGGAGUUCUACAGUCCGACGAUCCUCAAGUCCUGUGCUACACAUCGUAUGUACCGAAUCGGGGAGGGAGGGGAGGGAAAGUAUUAUGUUACGCCGUUCGGAUCUGCACUUCCAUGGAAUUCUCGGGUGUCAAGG` gave a log2 enrichment of -0.737.
`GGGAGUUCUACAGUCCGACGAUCUGGCCCUGGUGGCAUGCGGGGAGGAAGAGCUGGCCUCAUGGAUCGUGGUGGUCCCGGUGGAAUGUUCAGAGGUGGCCGUGGUGGAGACAGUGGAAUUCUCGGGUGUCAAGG` has a log2 enrichment of -0.0784.
`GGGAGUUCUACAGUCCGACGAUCCUCAAGUCCUGUGCUACACAUCGUAUGUACCGAAUCGGGUUGGGGUUGGUUGGAAAGUAUUAUGUUACGCCGUUCGGAUCUGCACUUCCAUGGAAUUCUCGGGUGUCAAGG` gave a log2 enrichment of -0.151.
With `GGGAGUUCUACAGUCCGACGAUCAAGUCCUGUGCUACACAUCGUAUGUACCGAAUCGGGUUUUGGGUUUUGGGUUUUGGGAAAGUAUUAUGUUACGCCGUUCGGAUCUGCACUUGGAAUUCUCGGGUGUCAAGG` the log2 enrichment was -1.02.
For `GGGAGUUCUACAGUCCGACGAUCAGUCCUGUGCUACACAUCGUAUGUACCGAAUCGGGGAAAAGGGAAAAGGAAAAGGGGAAAGUAUUAUGUUACGCCGUUCGGAUCUGCACUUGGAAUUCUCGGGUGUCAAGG`, the log2 enrichment was -0.663.
With `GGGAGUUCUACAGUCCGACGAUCAAGUCCUGUGCUACACAUCGUAUGUACCGAAUCGGGAAAAGGAAAAGGGGAAAAGGAAAGUAUUAUGUUACGCCGUUCGGAUCUGCACUUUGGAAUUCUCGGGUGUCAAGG` the log2 enrichment was -0.842.

Further values, each from its own experiment
`PhoQ, residues 284 288 289 292 302 303 SCCLKL` has a fold induction of 7.51 (PhoP, residues 12 14 15 18 19 NMSFL (Escherichia coli, UniProt P23836); Sort-seq, refers to: YFP reporter; E. coli; PhoQ-PhoP variant library, together with: 10 µM Mg2+; reference: high Mg2+ state, higher = stronger signaling).

For quick reference, copied from above (series 3):
For `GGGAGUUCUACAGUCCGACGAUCAGUCCUGUGCUACACAUCGUAUGUACCGAAUCGGGGAAAAGGGAAAAGGAAAAGGGGAAAGUAUUAUGUUACGCCGUUCGGAUCUGCACUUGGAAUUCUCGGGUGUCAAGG`, the log2 enrichment was -0.663.
With `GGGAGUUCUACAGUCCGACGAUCUCCUGUGCUACACAUCGUAUGUACCGAAUCGGGGUUUUUUUGGGGAGGGGAAAAAGGGGAAAGUAUUAUGUUACGCCGUUCGGAUCUGCAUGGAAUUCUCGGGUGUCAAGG` the log2 enrichment was -0.773.
